Experimental data from different studies.
A part holds a random share of what one study measured. Positions count from the first letter of the parent shown.

Study 1
Target: RNA binding protein fox-1 homolog 2, RRM domain, GST-SBP tag (RBFOX2, Homo sapiens, UniProt O43251-10, residues 100-194)
Technique: RNA Bind-n-Seq
Molecule type: RNA
Medium: in vitro
Concentration: 365 nM
Setting: natural RNA segment, single round, ends assumed
Baseline: no-protein control
Direction: higher = stronger binding
Quantity: RBNS enrichment (R)
All sequences stand within: GGGAGUUCUACAGUCCGACGAUC … UGGAAUUCUCGGGUGCCAA
Residues (chain): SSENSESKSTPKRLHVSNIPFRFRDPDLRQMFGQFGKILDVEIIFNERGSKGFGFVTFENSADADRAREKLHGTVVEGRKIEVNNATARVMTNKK
AACUCCCUUGUCUGUUUCUAAACUCGUGUUACCAGUCCAGUGUACCUCCCUCCCUGCAGGCUUUUGUCUGGCAGGAGACAGCAACACCUCCUAGGACUCUGUACUUGAUU: 0.662
CUGAAGCACUUACAUUUAGUUGUUGAAAGCAGUAGUAGCAGACCAAGCUAGCCCCUUAUCCAGCCAACACUGCACCUAACCCCAGGGAUUUGCUACCAGAGCAAACUCAG: 0.337
CCAGCACUAAUGUGUUUUGUCCACUUCAAACGCUGUUCUAAUUGCCAACCGGCUGCUCUAGGCUCCUGAGGAGUGUCCCUUCUCAAAGGAACUGCGCCCUGGAAAGGGCU: 0.322
CACUCCUACUUUAUGCCACAUUUCAGCCACACAUCUGCAUUAACCCACCUGAAACAUCCCAGCAGGCCCCUUGCUGCCAUGCCUUAUGGUUCCCAAUCAGCCAUUACCAU: 1.92
ACUUAAGUAUGGGAUACAGCACAUGGAUGCACCCCUCUGUGUGUCAGGCAUCCUCCAUGUGGACUCACUGUGCUGUUGGGACUGAAACACUAACUUUGUAAAAUGUGUCU: 0.653
UAGACAAGUUUAUAUAUAACUUACCAAGAUGUUGGCUGUCCUGGUGUAUUGCCAGACAGCUCUCUUUUGGUUCCCAUUCCAAAUGUGCUGCUGUCCUUCUUUGCAUUUCA: 0.24
UACACCUCAAAUUUGGAAAGUUGCCCCAUCUCUCCCCCCCAACCCAUGCCCCUGCUCACCUCUGCCAGGUCCCAGCUUGACCUACUGGGUCAAGGCCAGCCUCGGUGAUG: 0.29
UAGUUAUGUAAAAGGCUACCCUUGACAAGAAAAGACAUACUGUCAUGUAUUUAUAUUCUAGCAUAGACUAAACUGAAUAAAAAUGCUGAUAACAGGACCUUUAGUAAGCA: 4.5

Study 2
Target: Fragile X messenger ribonucleoprotein 1, C-terminal low-complexity region (Fmr1, Mus musculus, UniProt P35922)
Technique: RNA Bind-n-Seq
Molecule type: RNA
Medium: in vitro
Concentration: 200 nM
Setting: whole 134-nt RNA, ends assumed
With: 150 mM LiCl
Baseline: input library
Direction: higher = stronger binding
Quantity: log2 enrichment
Each molecule: 7-deaza-guanosine replaces G
All sequences stand within: GGGAGUUCUACAGUCCGACGAUC … UGGAAUUCUCGGGUGUCAAGG
AGUCCUGUGCUACACAUCGUAUGUACCGAAUCGGGAAAAAGGGAAAAAGGAAAAAGGGAAAGUAUUAUGUUACGCCGUUCGGAUCUGCAC: -0.896
GUCCUGUGCUACACAUCGUAUGUACCGAAUCGGGGAAAAAGGGGUGGGGUUUUUGGGGAAAGUAUUAUGUUACGCCGUUCGGAUCUGCAC: -0.155
GUCCUGUGCUACACAUCGUAUGUACCGAAUCAAACCCAAAUUUUUAAACCCCCCCAAAAAAGUAUUAUGUUACGCCGUUCGGAUCUGCAC: 1.45
GCUCGCCCGAGCUCAGAGGUGAUCAAAGACGCCAACUUGUACAUCAGCGGGCUCCCGCGGACCAUGACCCAGAAGGACGUAGAAGACAUG: -1.79
UGGGAGGUGGAUUUUGUUUAUUUUUUUAGCUCAUUUCCAGGGGUGGGAAUUUUUUUUUCAUAUGUGUCAUGAAUAAAGUUGUUUUUGAAA: 0.34
CCUCAAGUCCUGUGCUACACAUCGUAUGUACCGAAUCGGUGGGGUGGGUGGGGAAAGUAUUAUGUUACGCCGUUCGGAUCUGCACUUCCA: -0.0388
UGAAUGCUGAGAAUGUUGCUGGUCACCAGAUUGCCUCUGAAACACAGAUCCUUGAGGGCUCUUUGGGAAUAUCUGUAAAGUCACACUGCA: 0.164
GCAGGAAGUAAAUACAAAUGGAAAUGCUUCGGAUAGUGGCAGGGGUGGGGGUUGCUAAGGAAAGGGUGGGAUGGGAGUGGGUAAAGAGUU: 1.03

Study 3
Target: Histone acetyltransferase KAT6A, winged helix 2, GST fusion (KAT6A, Homo sapiens, UniProt Q92794, residues 85-181)
Technique: protein binding microarray
Molecule type: double-stranded DNA, one strand shown
Medium: in vitro
Concentration: not given
Setting: 8-mer, flanks averaged, mean of 2 arrays, mostly near background
Baseline: not given
Direction: higher = stronger binding
Quantity: E-score
Residues (chain): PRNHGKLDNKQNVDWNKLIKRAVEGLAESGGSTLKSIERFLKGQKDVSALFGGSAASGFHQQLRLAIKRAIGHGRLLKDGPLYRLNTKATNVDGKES
ACTCCCCC: -0.17
TCCCAGCA: 0.171
ATGATCCA: -0.0828
CTGCCCCA: 0.194
CACAGCCC: -0.116
AATTCGAA: -0.053
ATGCCTAG: -0.163
GCGTACGA: 0.111

Other studies, line by line
Starting sequence: viral docking peptide; KGVKRKLFAEDSS
KGHKRKLFAEDSS [V3H]  normalised enrichment score (CCND3, cyclin fold, Cln2 fusion (human); yeast growth competition, sequencing; yeast; weak parent motif; baseline: not given, higher = stronger binding): 0.342

For quick reference, copied from above (other studies, line by line):
KGHKRKLFAEDSS [V3H]  normalised enrichment score (CCND3, cyclin fold, Cln2 fusion (human); yeast growth competition, sequencing; yeast; weak parent motif; baseline: not given, higher = stronger binding): 0.342
